{"data": "Experimental data gathered from unrelated publications", "note": "A part holds a random share of what one study measured."}
{"data": "Study 1", "target": "Interferon regulatory factor 3, full length, phosphomimetic (IRF3, Homo sapiens, UniProt Q14653, residues 1-427, S386D/S396D/S398D/S402D/T404D/S405D)", "technique": "protein-binding microarray", "form": "double-stranded DNA, one strand shown", "sample": "in vitro", "concentration": "2540 nM top", "notes": "60-bp whole probe", "together with": "salmon DNA 0.4 mg/ml", "reference": "random background probes", "direction": "higher = stronger binding", "shared flanks, not repeated": "GCCTAGCAC … GTCTTGATTCGCTTGACGCTGCTG", "Target sequence (chain)": "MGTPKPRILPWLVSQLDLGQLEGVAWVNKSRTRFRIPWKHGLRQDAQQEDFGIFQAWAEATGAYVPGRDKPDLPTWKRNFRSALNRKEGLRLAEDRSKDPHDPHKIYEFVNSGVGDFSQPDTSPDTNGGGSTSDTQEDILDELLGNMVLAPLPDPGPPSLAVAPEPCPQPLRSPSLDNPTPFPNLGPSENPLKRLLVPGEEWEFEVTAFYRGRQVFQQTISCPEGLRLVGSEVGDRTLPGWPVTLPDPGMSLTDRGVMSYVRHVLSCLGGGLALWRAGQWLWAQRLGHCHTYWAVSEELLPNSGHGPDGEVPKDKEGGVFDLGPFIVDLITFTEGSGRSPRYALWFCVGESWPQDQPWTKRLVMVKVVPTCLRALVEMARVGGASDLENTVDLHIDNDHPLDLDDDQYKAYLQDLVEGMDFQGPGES"}
{"Sequence": "TTAGGTTTCGGGTATCGGTTAGTGCTA", "fitted relative affinity [z-score]": 4.39}
{"Sequence": "GACGGTATCTGGACTGGGGACGTGCTA", "fitted relative affinity [z-score]": 0.437}
{"Sequence": "TTCTATATTTGCTTCAGGTTGTGCTAG", "fitted relative affinity [z-score]": 0.801}
{"Sequence": "GAAGGTTTCGGTTCCGGGACGTGCTAG", "fitted relative affinity [z-score]": 10.8}
{"Sequence": "GAAAAATCTGGAACTAACAGGTGCTAG", "fitted relative affinity [z-score]": 0.0876}
{"Sequence": "TTAGGACTGGACTAGCGGTTAGTGCTA", "fitted relative affinity [z-score]": -0.505}
{"Sequence": "GACGATCTCAGACTGGAGCCGTGCTAG", "fitted relative affinity [z-score]": 0.234}
{"data": "Study 2", "target": "Sal-like protein 4, full length isoform A (SALL4, Homo sapiens, UniProt Q9UJQ4, residues 1-1053)", "technique": "universal PBM", "form": "double-stranded DNA, one strand shown", "sample": "in vitro", "concentration": "600 nM", "notes": "8-mer, flanks averaged, mean of replicates", "direction": "higher = stronger binding", "sequence of UniProt Q9UJQ4 (whole entry, looked up)": "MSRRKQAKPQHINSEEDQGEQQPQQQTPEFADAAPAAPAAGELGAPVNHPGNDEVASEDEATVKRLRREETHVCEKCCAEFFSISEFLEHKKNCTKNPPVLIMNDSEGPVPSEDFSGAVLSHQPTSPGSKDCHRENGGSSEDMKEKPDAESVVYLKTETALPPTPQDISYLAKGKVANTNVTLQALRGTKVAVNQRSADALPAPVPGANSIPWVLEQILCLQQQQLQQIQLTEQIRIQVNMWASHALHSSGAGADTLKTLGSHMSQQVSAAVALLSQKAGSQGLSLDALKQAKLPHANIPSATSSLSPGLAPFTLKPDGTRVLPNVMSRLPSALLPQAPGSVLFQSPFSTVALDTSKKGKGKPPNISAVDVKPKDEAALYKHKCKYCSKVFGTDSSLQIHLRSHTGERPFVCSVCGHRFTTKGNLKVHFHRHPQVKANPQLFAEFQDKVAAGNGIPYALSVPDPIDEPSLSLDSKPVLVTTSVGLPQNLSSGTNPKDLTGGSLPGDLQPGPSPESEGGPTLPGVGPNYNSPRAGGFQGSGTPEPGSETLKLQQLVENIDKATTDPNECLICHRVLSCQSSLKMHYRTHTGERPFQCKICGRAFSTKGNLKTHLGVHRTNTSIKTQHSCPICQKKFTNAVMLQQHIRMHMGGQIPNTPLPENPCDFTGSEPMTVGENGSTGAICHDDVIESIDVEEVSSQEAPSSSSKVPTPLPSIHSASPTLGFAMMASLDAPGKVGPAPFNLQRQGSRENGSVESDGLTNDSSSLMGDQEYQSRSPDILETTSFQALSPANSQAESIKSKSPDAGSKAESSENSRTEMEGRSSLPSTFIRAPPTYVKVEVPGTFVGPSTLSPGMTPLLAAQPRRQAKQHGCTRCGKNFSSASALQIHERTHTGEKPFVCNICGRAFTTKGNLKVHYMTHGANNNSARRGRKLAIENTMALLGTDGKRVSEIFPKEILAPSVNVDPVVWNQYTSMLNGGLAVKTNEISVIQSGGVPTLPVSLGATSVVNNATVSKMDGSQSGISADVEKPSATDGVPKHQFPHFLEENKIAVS"}
{"Sequence": "AAGGGCCT", "E-score": -0.256}
{"Sequence": "ATACAGTG", "E-score": 0.164}
{"Sequence": "CATCACGA", "E-score": 0.0889}
{"Sequence": "GCCGGGAA", "E-score": -0.38}
{"Sequence": "CAGTCGTC", "E-score": -0.108}
{"data": "Study 3", "target": "Centromere-binding protein 1, full length, His-tagged (CBF1, Saccharomyces cerevisiae, UniProt P17106, residues 1-351)", "technique": "competition protein-binding microarray", "form": "double-stranded DNA, one strand shown", "sample": "in vitro", "concentration": "2 µM", "notes": "whole 60-bp probe, lowest competitor level", "together with": "Pho4 competitor, 0.05 µM", "direction": "higher = stronger binding", "sequence of UniProt P17106 (whole entry, looked up)": "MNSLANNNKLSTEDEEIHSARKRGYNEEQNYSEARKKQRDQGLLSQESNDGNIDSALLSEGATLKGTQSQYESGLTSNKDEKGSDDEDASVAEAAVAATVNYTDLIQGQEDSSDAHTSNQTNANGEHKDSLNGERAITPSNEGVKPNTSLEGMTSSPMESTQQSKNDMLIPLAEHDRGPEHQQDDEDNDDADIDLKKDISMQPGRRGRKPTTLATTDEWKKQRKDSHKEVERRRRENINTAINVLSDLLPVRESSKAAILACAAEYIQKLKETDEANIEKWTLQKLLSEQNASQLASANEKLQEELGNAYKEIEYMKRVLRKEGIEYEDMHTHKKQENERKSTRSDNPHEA"}
{"Sequence": "AAAGCGGTAATTTTTCACGTGGCATCACATATCTATGTCTTGATTCGCTTGACGCTGCTG", "fluorescence intensity [a.u.]": 951}
{"Sequence": "TGCGCAACAACTTGCCAAGTGGGTGTATGTCTAGAAGTCTTGATTCGCTTGACGCTGCTG", "fluorescence intensity [a.u.]": 63.1}
{"Sequence": "GAAGATAGCGGATCGCACGATGGCTCTAACGTTAGAGTCTTGATTCGCTTGACGCTGCTG", "fluorescence intensity [a.u.]": 65.4}
{"Sequence": "AAGCTGAAGTATGGTGTCGTGACTCGGATTTCCGCTGTCTTGATTCGCTTGACGCTGCTG", "fluorescence intensity [a.u.]": 654}
{"data": "Other studies, line by line"}
{"Substance": "PhoQ, residues 284 288 289 292 302 303 GTAMQF", "target": "PhoP, residues 12 14 15 18 19 QYFSL (Escherichia coli, UniProt P23836)", "assay": "Sort-seq, item: YFP reporter", "system": "E. coli", "conditions": "PhoQ-PhoP variant library, together with: 10 µM Mg2+", "how to read": "reference: high Mg2+ state, higher = stronger signaling", "endpoint": "fold induction", "result": 8.6}
